Measured values gathered from unrelated publications.
Protocols differ between the studies behind these lines.
Target: Ephrin type-B receptor 1 (EPHB1, Homo sapiens, UniProt P54762)

Structure (SMILES)	test	setting	how to read	measurement	value
C=CC(=O)N1CCc2ccc(-n3c(=O)ccc4cnc5ccc(-c6cnn(C)c6)cc5c43)cc21	KINOMEscan	1 µM	baseline: DMSO control	remaining binding	100%
C=CC(=O)Nc1cccc(-c2cnc3[nH]cc(C(=O)NC(C)(C)C)c3n2)c1	enzyme activity, inhibitor	0.1 µM		inhibition	-2%
COc1c(Cl)cccc1Nc1c(-c2ccncc2C#C[C@@]2(C)CCCN2C(=O)/C=C/CN(C)C)[nH]c2c1C(=O)NCC2	cell-free assay, competition with immobilised ligand	3 µM		remaining binding	90%
Cc1ccc(-c2c(/C=C(\C#N)C(=O)NC(C)C)n(CCCO)c3ncnc(N)c23)cc1	cell-free assay, competition with immobilised ligand	1 µM		remaining binding	66%
COCC12C(=O)NC3C4(C(OC)CC1O)C1CC5(O)C(OC)C(O)C(OC(C)=O)(C1C5OC(=O)c1ccccc1)C3(O)C(OC)C24 (centres unmarked)	kinase activity, inhibitor, ProQinase kinase profiling	25 µM	baseline: control	remaining activity	108%
CC(C)=CC1OC(C)(C)C2C=C3C(=O)C(Cl)=CC(O)C3C3C(O)C4OC4C(=O)C132 (centres unmarked)	cell-free assay, competition with immobilised ligand	10 µM		remaining binding	81%
COc1cc(Nc2nc(C)cc(-c3cnn4nc(OC)ccc34)n2)cc(C(F)(F)F)c1	inhibitor	1 µM	baseline: control	remaining activity	85%
CCn1cc(C(=O)O)c(=O)c2c(N)c(F)c(NC3CCCCC3)cc21	kinase activity	0.1 µM, together with: ATP at Km		inhibition	-3.8%
Cc1cccc(O[C@H]2CCC[C@@H](C(C)CNCc3ccncc3)C2)c1 (relative stereo)	cell-free assay	1 µM		inhibition	-2%
Nc1ncc(-c2cc(-c3cnn(CC(F)(F)F)c3)ncc2F)nc1C(=O)NC1CNCC(F)C1 (centres unmarked)	enzyme activity	1 µM	baseline: DMSO control	remaining activity	96.3%
CN1CCN(Cc2ccc(-c3ccc(CO[C@H]4CCC[C@@H]4NC(=O)c4cc(-c5cnn(C)c5)cnc4N)cc3)cc2)CC1	enzyme activity, inhibitor	0.1 µM		inhibition	2%
Cc1cnc2nc1Nc1cccc(c1)COC/C=C/COCc1cc(ccc1OCCN1CCOCC1)N2	binding	0.1 µM		remaining binding	80%
NC(=O)C[C@H]1CCc2sc3ncnc(O[C@H]4CC[C@H](N5CCOCC5)CC4)c3c21	enzyme activity, inhibitor	10 µM		inhibition	12%
CNC1C[S+]2CC[S+]3CC[S+](C1)[Ru-4]321([N]=C=S)[n]2c3ccc(OC)cc3c3c4c(c5cc(F)c[n+]1c5c32)C(=O)NC4=O (centres unmarked)	KinomeScan	0.1 µM	baseline: untreated	remaining binding	100%

Some of these lines once more:
Structure (SMILES)	test	setting	how to read	measurement	value
Nc1ncc(-c2cc(-c3cnn(CC(F)(F)F)c3)ncc2F)nc1C(=O)NC1CNCC(F)C1 (centres unmarked)	enzyme activity	1 µM	baseline: DMSO control	remaining activity	96.3%
